Results of several laboratories.
Every numbered part comes from another study and shows a few of its results, in no order. Positions count from the first letter of the parent shown.

Series 1 — target: CCNF, cyclin fold, Cln2 fusion (human); technique: yeast growth competition, sequencing; sample: yeast; notes: strong parent motif; reference: not given; reading: higher = stronger binding; quantity: normalised enrichment score
Starting sequence: E2F1 docking peptide (human); PPVKRRLDFETDH
R5L: 1.29
R5V: 2.58
R5N: 0.439
D8L: 7.49
P2W: 8.39
D12Y: 7.99
F9N: 0.437

Series 2 — technique: protein-binding microarray; molecule type: double-stranded DNA, one strand shown; sample: in vitro; concentration: 940 nM top; notes: 60-bp whole probe; with: salmon DNA 0.4 mg/ml; reference: random background probes; reading: higher = stronger binding; quantity: fitted relative affinity; all sequences stand within: GCCTAGCAC … GTCTTGATTCGCTTGACGCTGCTG
Target: Interferon regulatory factor 5, full length, phosphomimetic (IRF5, Homo sapiens, UniProt Q13568-2, residues 1-514, S451D/S453D/S456D/S462D)
TTAGGTTTCGGTATCGATTAGTGCTAG: 14.8 z-score
TCATATATATTTATGTAACTGTGCTAG: 0.42 z-score
TTAGGTATCGACTTGCGGTTAGTGCTA: 5.91 z-score
TCGCACACATACGGCTTCTCGTGCTAG: 0.177 z-score
TCATCACTCTGTCCCTCACTGTGCTAG: 1.15 z-score
CTATTTTTCCCCTGCACTCAGTGCTAG: 1.34 z-score
TCATTTTCCCCCCTCACACTGTGCTAG: 1.09 z-score

Series 3 — technique: protein binding microarray; molecule type: double-stranded DNA, one strand shown; sample: in vitro; concentration: not given; reference: not given; reading: higher = stronger binding; quantity: E-score
Target: Histone acetyltransferase KAT6A, winged helix 2, GST fusion (KAT6A, Homo sapiens, UniProt Q92794, residues 85-181)
Notes: 8-mer, flanks averaged, mean of 2 arrays, mostly near background
Construct (chain): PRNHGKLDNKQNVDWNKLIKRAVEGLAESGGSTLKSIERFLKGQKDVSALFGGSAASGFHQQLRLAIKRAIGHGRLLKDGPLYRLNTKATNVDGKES
AAGTGAGG: -0.0551
CGCCGAGA: 0.135
CGTAGGTC: -0.0816
CCACTCGG: 0.0912
GACTTATA: -0.028
ATCTCTAA: -0.0219
AGGCTACG: -0.0824
AGGTAGGA: -0.118
CAATATAA: 0.0669
ACTGGAGA: -0.138

Single results of other studies
PhoQ, residues 284 288 289 292 302 303 AMDMFI — fold induction (PhoP, residues 12 14 15 18 19 NQFFI (Escherichia coli, UniProt P23836); Sort-seq, refers to: YFP reporter; E. coli; PhoQ-PhoP variant library, with: 10 µM Mg2+; reference: high Mg2+ state, higher = stronger signaling): 0.621

Some of these lines once more (series 2):
TTAGGTTTCGGTATCGATTAGTGCTAG: 14.8 z-score
